# Published values from different studies.
# A part holds a random share of what one study measured.

# Block 1
# Target: Hepatocyte nuclear factor 3-beta, forkhead domain (FOXA2, Homo sapiens, UniProt Q9Y261, residues 142-269)
# Method: protein-binding microarray
# Molecule type: double-stranded DNA, one strand shown
# Matrix: in vitro
# Concentration: not given
# Notes: k-mer, scored over probes, only values ≥0.25
# Reading: higher = stronger binding
# Target sequence (chain): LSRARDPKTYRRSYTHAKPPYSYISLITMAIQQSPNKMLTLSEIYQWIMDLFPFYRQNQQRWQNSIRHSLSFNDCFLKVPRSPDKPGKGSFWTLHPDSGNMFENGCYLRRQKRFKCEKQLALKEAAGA
Sequence,E-score
TAAATACA,0.371
ACAATTGT,0.282
ACTAGAAT,0.267
CATTAAAC,0.276
ATAGATCA,0.258
TATTGGCA,0.25
CACGTATA,0.261
TATTTACA,0.405
AACGTAAC,0.285
TCCATCAA,0.29
TCATTACA,0.285
AAACATCA,0.338
AATAATAC,0.277
AGTGTACA,0.328

# Block 2
# Organism: Saccharomyces cerevisiae
# Read-out: binding
# Method: yeast competitive growth sequencing
# Molecule type: peptide
# Strain: cyclin A1-Cln2 strain
# Matrix: peptide tiling library
# Reading: direction not given
Sequence,enrichment score
GAEELEDLVHFSVSEL,2.41
TTTTSPRTPPPLTVQD,1.26
PPTFLSTGEIHAFLSS,-0.00191
ARKRLELGNLGNPQ,-1.15
NFETPEAETPIRSPFK,0.475
PPKPLKKLRFDIEGSD,-0.757
LRRQLSFSED,0.411
LRRKLFLDGNGSIS,-1.42

# Block 3
# Target: TAR DNA-binding protein 43, full length, His tag (TARDBP, Homo sapiens, UniProt Q13148, residues 1-414)
# Method: RNA Bind-n-Seq
# Molecule type: RNA
# Matrix: in vitro
# Concentration: 20 nM
# Notes: 6-mer, flanks averaged, single round
# With: 150 mM LiCl
# Relative to: input library
# Reading: higher = stronger binding
Sequence,6-mer enrichment (R)
UUGCGG,1.09
CCUGAC,0.91
GCCGCC,1.03
UCCCUG,1.02
CGAAAU,0.812
CUUUUG,1.14
CAUAUC,0.853
GUUAUA,1.03
UUGGCG,1.06

# Block 4
# Target: RING finger protein unkempt homolog, zinc fingers 1-6, GST-SBP tag (UNK, Homo sapiens, UniProt Q9C0B0, residues 30-357)
# UniProt Q9C0B0, sequence (30-357, looked up): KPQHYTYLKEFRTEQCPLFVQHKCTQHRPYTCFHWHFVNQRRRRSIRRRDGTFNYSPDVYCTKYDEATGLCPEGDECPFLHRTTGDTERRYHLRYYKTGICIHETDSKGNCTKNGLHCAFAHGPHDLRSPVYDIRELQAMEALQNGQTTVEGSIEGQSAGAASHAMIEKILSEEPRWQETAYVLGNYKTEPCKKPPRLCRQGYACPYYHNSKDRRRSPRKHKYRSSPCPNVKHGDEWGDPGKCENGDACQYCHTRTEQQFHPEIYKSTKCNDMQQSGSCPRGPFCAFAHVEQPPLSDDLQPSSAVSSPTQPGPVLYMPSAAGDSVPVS
# Method: RNA Bind-n-Seq
# Molecule type: RNA
# Matrix: in vitro
# Concentration: not given
# Notes: RNA with constant flanks, human-mouse chimeric sites, ends assumed
# Relative to: input RNA pool
# Reading: higher = stronger binding
# All sequences stand within: GGGAGUUCUACAGUCCGACGAUC … CAACAGAGGAUUGAGCAUCA
Sequence,bound/input enrichment [ratio]
CUGAGGAUACCACUGAAGAGACCUUAAAAGAAUCAUUUGAGGGCUCUGUUCGUGCAAAGGAUAGUUAUGAUCGGGAAACUGGUUCUUUCCAAAGGGUUGGUUUUGUAGACUUUAAUAGUG,0.992
UUCCCAACCUCCCGCCUCACCCCACCCCCGCUUUUUGGAAAGUUUUUGGCUUUUUUUUUCCUUCCCCAUACAAAGUGAUUACAGUUUCCCCCGCAAGGGUCUAUCGAAGGGCUUGACGGA,1.13
UCAGUCUUUUUGUACAGCUUUGUAAAUUCUUAACAUUUUUAUAUUGCCAUGUUUAUUUUGUUUGGGUGCUUUAUUAAAUUAAGUACAUAGCUAAGGUAAUGAACAUCUUUUUCAGUAAUU,1.31
GGAAGUACAUUAAUGGAGAUUGAUGGUGACAAAGGCAAGCAGGGCGGGCCCACCUACUACAUAGAUACCAAUGCCCUCCGCGUGCCCAGGGAGAACAUGGAGGCCAUCUCACCACUCAAG,0.296
CACAGAGCAGCACCUACCCCCUCCUCCUUUCCACACCUGCAAACUCUUUUACUUGGGCUGAAUAUUUAGUGUAAUUACAUCUCAGCUUUUGAGGGCUCUGUGGCAAAUUCCCGGAUUAAA,1.04
AUGGAACAUUUCGAUGCGUCACUCAGUACCUAUUUCAAGGCCUUCCUGGGCCCCCGAGAUACAAGAGUCAAAGGAUGGUUCCUCCUGGACAAUUACAUACCCACAUUUAUCUGCUCUGUU,0.0806
AAAAUAGACUAUGGCGAGUACAUGGAUAAAAACAAUGUGAGGCGGCAAGCAACAACAAUCAUAGCUGAUAACAUUAUAUUUCUGAGUGACCAGACAAAAGAGAAGGAAUAGAACGGAUGA,3.03
UAUAAUAAUCAUGAAAUUCGUUCCGGGAAACAUAUUGGUGUCUGCAUCUCAGUUGCCAACAAUAGGCUUUUUGUGGGCUCGAUUCCUAAGAGUAAAACCAAGGAGCAGAUUCUUGAAGAA,2.57
